Measured values gathered from unrelated publications.
Each line is one published result; not all experiments were run side by side. In brackets after ≈: the same amount, converted by molar mass.
Organism: Enterococcus faecalis

For CNC1=C([N+](=O)[O-])C2(C(=O)Nc3ccc(Cl)cc32)C2=C(O1)C(=O)c1ccccc1C2=O (centres unmarked), the growth inhibition was 67.2% (MTCC 439; 250 µg/mL, 24 h).
The MIC of COc1cc(Cc2cnc(N)nc2N)cc(/C=C/C(=O)N2N=Cc3ccccc3C2c2ccccc2)c1OC (centres unmarked) is reported as 0.25 µg/mL (≈ 0.48 µM) (microbial growth, broth dilution; ATCC29212; pH 5.8).
Cc1ccc2ccc3ccc(C)nc3c2n1.Cc1ccc2ccc3ccc(C)nc3c2n1.O.[Cl-].[Cl-].[Cl-].[Yb+3] gave an inoculation time of 48 h (bacterial growth).
With CNC1=C([N+](=O)[O-])C2(C(=O)Nc3ccccc32)C2=C(CCCC2=O)O1 (centres unmarked) the growth inhibition was 37.8% (MTCC 439; 250 µg/mL, 24 h).
For CC(=O)[O][Ag]=[c]1n(C)ccn1CC([O-])c1ccccc1.[Na+] (centres unmarked), the MIC was 10 µg/mL (broth dilution; ATCC 19433; 18 h, 37 °C).
For COc1ccc2c3c(oc2c1CC=C(C)C)-c1cc(CC=C(C)C)c(O)cc1OC3, antibacterial activity read “inactive” (ATCC 29212; concentration not given).
For CN(Cc1cc(N(C)C)c2c(c1O)C(=O)C1=C(O)[C@]3(O)C(=O)C(C(N)=O)=C(O)[C@@H](N(C)C)[C@@H]3C[C@@H]1C2)CC(C)(C)C, the MIC was 0.25 µg/mL (≈ 0.438 µM) (JH2-2(pMV158), Tet L efflux).
Under antibacterial activity, CC(C)=CCc1c(O)ccc2c1O[C@H]1c3cc4c(cc3OC[C@@H]21)OC(C)(C)C=C4 is recorded as “inactive” (ATCC 29212; concentration not given).
With CN(C)c1cc(CNCc2ccccc2)c(O)c2c1C[C@H]1C[C@H]3[C@H](N(C)C)C(O)=C(C(N)=O)C(=O)[C@@]3(O)C(O)=C1C2=O the MIC was 0.5 µg/mL (≈ 0.867 µM) (microbial growth, broth dilution).
COc1c(CC=C(C)C)c(O)cc2c1-c1oc3c(CC=C(C)C)c(O)ccc3c1CO2 — result for antibacterial activity: “inactive” (ATCC 29212; concentration not given).
CNCc1cc(N(C)C)c2c(c1O)C(=O)C1=C(O)[C@]3(O)C(=O)C(C(N)=O)=C(O)[C@@H](N(C)C)[C@@H]3C[C@@H]1C2 gave an MIC of 4 µg/mL (≈ 7.99 µM) (microbial growth, broth dilution).
CC(C)=CCc1cc([C@@H]2CC(=O)c3c(O)cc(O)c(CC=C(C)C)c3O2)cc(CC=C(C)C)c1O — result for antibacterial activity: “inactive” (ATCC 29212; concentration not given).
With CN(C)c1cc(CN2CCCC2)c(O)c2c1C[C@H]1C[C@H]3[C@H](N(C)C)C(O)=C(C(N)=O)C(=O)[C@@]3(O)C(O)=C1C2=O the MIC was 2 µg/mL (≈ 3.7 µM) (JH2-2(pMV158), Tet L efflux).
The MIC of COc1cc(Cc2cnc(N)nc2N)cc(/C=C/C(=O)N2N=Cc3ccccc3C2C=C(C)C)c1OC (centres unmarked) is reported as 0.06 to 0.125 µg/mL (≈ 0.12 to 0.251 µM) (microbial growth, broth dilution; ATCC29212; pH 7).

Some of these lines once more:
With CNC1=C([N+](=O)[O-])C2(C(=O)Nc3ccccc32)C2=C(CCCC2=O)O1 (centres unmarked) the growth inhibition was 37.8% (MTCC 439; 250 µg/mL, 24 h).
The MIC of COc1cc(Cc2cnc(N)nc2N)cc(/C=C/C(=O)N2N=Cc3ccccc3C2c2ccccc2)c1OC (centres unmarked) is reported as 0.25 µg/mL (≈ 0.48 µM) (microbial growth, broth dilution; ATCC29212; pH 5.8).
